# Measured values pooled from the literature.
# Compare with care: the assays were run in different laboratories.
# Cell line: T47D
Structure (SMILES),effect on,method,concentration,time,baseline,quantity,value
CC(=O)OC[C@H]1O[C@@H](Sc2sc(C(=O)c3ccc(C)cc3)c(N)c2-c2nc3ccccc3s2)[C@H](OC(C)=O)[C@@H](OC(C)=O)[C@@H]1OC(C)=O,,SRB,10 µM,48 h,untreated,growth,75.4%
CCCCCCCCCCCCCCCCn1c(-c2cccnc2)nc(-c2ccc(C)cc2)c1-c1ccc(C)cc1,cell growth or viability,SRB,,48 h,,IC50,> 100 µM
CC(=O)OC[C@H]1O[C@@H](Sc2sc(C(=O)c3ccc(Br)cc3)c(N)c2-c2nc3ccccc3s2)[C@H](OC(C)=O)[C@@H](OC(C)=O)[C@@H]1OC(C)=O,,SRB,10 µM,48 h,untreated,growth,71.5%
Cc1ccc(C2=Nn3c(N/N=C4/C(=O)Nc5ccc(Br)cc54)nnc3SC2)cc1,cell growth or viability,SRB,10 µM,,,inhibition,12%
CC(Cc1ccc(Cl)cc1)=C(c1ccc(Cl)cc1)c1ccc(OCCN(C)C)cc1,cell growth or viability,SRB,,,,GI50,3.83 µM
CC/C=C\C/C=C\C/C=C\C/C=C\C/C=C\C/C=C\CCC(=O)Nc1ccn(C2OC(CO)C(O)C2(F)F)c(=O)n1 (stereo not shown),,,,,,total growth inhibition concentration,17.6 µM
COc1ccc(C2=NN(C3=NC(=O)C(=Cc4ccc(O)cc4)S3)C(c3ccc(F)cc3)C2)cc1 (stereo not shown),,PI flow cytometry,concentration not given,24 h,,cells in %Sub-G1 phase,31.4%
COc1ccc2c(c1)/C(=N\Nc1nnc3n1N=C(c1ccccc1)CS3)C(=O)N2,cell growth or viability,SRB,10 µM,,,inhibition,47%
CC(=C(c1ccc(O)cc1)c1ccc(Cl)cc1)c1ccc(Cl)cc1,cell growth or viability,SRB,,,,GI50,0.89 µM
Cc1ccc(-c2nc(-c3cccnc3)[nH]c2-c2ccc(C)cc2)cc1,cell growth or viability,SRB,,48 h,,IC50,> 100 µM
COc1ccc(C2=Nn3c(NN=C4C(=O)N(C)c5ccc(Br)cc54)nnc3SC2)cc1,cell growth or viability,SRB,10 µM,,,inhibition,18%
COc1ccc(C=C2SC(N3N=C(c4cccs4)CC3c3ccc(F)cc3)=NC2=O)cc1 (stereo not shown),,annexin V-FITC/PI flow cytometry,concentration not given,,,total apoptotic cells,25.2%
CCCCCCCCCCCCn1c(-c2cccnc2)nc(-c2ccc(C)cc2)c1-c1ccc(C)cc1,cell growth or viability,SRB,,48 h,,IC50,> 100 µM

# A few entries again:
Structure (SMILES),effect on,method,concentration,time,baseline,quantity,value
CCCCCCCCCCCCCCCCn1c(-c2cccnc2)nc(-c2ccc(C)cc2)c1-c1ccc(C)cc1,cell growth or viability,SRB,,48 h,,IC50,> 100 µM
